Assay results from different studies.
Protocols differ between the studies behind these lines. ± gives the spread as reported.

| SMILES | cell line | assay | setting | scale | measurement | result |
| --- | --- | --- | --- | --- | --- | --- |
| C[C@H](C(=O)Nc1ccc(Cn2cc(C(F)(F)F)ccc2=O)cc1)N(C)C | NIH3T3 | cell growth or viability, CCK-8 | 1 mM |  | inhibition | 60.2% |
| CO[C@H]1N(OC)c2ccccc2[C@@]12CN=C(Nc1cc(C(F)(F)F)cc(C(F)(F)F)c1)S2 (relative stereo) | HCT-116 | PI flow cytometry | 40 µM, 48 h |  | G0/G1 phase cells | 35.6 ± 3.22% |
| COc1cc(CNC(=O)C[C@H](C)CCC=C(C)C)ccc1OCc1cn(-c2ccccc2Cl)nn1 | UACC-62 melanoma cells | SRB | 10 µM, 48 h |  | growth percent | 39.6% |
| O=C1Nc2ccc(F)cc2C1=Cc1c(Cl)[nH]c2c1ccc1ccccc12 | renal cancer subpanel of NCI-60 |  | 48 h |  | TGI | 11 µM |
| O=C(OCc1cccc(O)c1O)c1ccc(O)c(CO)c1 | HPMEC | DHE HPLC | 5 µM, with: angiotensin II |  | other ROS production | no effect |
| CC(C)=CCc1cc([C@@H]2CC(=O)c3ccc(O)c(CC=C(C)C)c3O2)c(O)c(CC=C(C)C)c1O | 3T3-L1 adipocytes | activator | up to 100 µM |  | glucose consumption | inactive |
| O=C1Nc2ccc(Cl)cc2C1=Cc1c(Cl)[nH]c2c1ccc1ccccc12 | renal cancer subpanel of NCI-60 |  | 48 h |  | TGI | 8.51 µM |
| COC(=O)[C@@H]1[C@@H](OC)[C@H](OC(=O)c2cc(OC)c(OC)c(OC)c2)C[C@@H]2CN3CC[C@]4(O[C@@H]3C(=O)[C@@H]21)C(=O)Nc1cc(OC)c(-c2ccc(C(F)(F)F)cc2)cc14 | RS4;11 | annexin V/PI flow cytometry | 1 µM, 72 h |  | late apoptotic cells | 45.9 ± 2.78% |
| O=Cc1c(O)ccc2ccccc12 | HUVEC | RNA sequencing, item: ATP6V0D2 | 75 µM, 24 h | baseline: DMSO | log2 fold change | 5.48 |
| Cc1cc([C@H](C(=O)N2C[C@H](O)C[C@H]2C(=O)N[C@@H](CC(=O)N2CCC(N3CCC(C#Cc4ccc(C(=O)N[C@H]5C(C)(C)[C@H](Oc6ccc(C#N)c(Cl)c6)C5(C)C)cc4)CC3)CC2)c2ccc(-c3scnc3C)cc2)C(C)C)on1 | MDA-MB-453 | inhibition of increase, item: c-Myc | 24 h, with: R1881 |  | effective concentration | 1 nM |
| O=C1Nc2ccccc2/C1=N\Nc1nnc2n1N=C(c1ccc(Cl)cc1)CS2 | NCI-60 cell line panel |  | 10 µM, growth inhibition above 10% |  | number of sensitive cell lines | 30 |
| COc1ccc(-c2ocnc2-c2cc(Br)c(OC)c(OC)c2)cc1OCCCC(=O)NO | HepG2 and Huh-7 | western blot, item: GLUT2 | concentration not given |  | protein level | no effect |
| CC/C=C\C/C=C\C/C=C\C/C=C\C/C=C\C/C=C\CCC(=O)Nc1ccn(C2OC(CO)C(O)C2(F)F)c(=O)n1 (stereo not drawn) | SNB-75 | NCI60 screen |  |  | TGI | 25.1 µM |
| CCCC[C@H](NC(=O)CNC(=O)CNC(=O)CN1CCN(CC(=O)O)CCN(CC(=O)O)CC1)C(=O)N[C@H]1CC(=O)NCCCC[C@@H](C(N)=O)NC(=O)[C@H](Cc2c[nH]c3ccccc23)NC(=O)[C@H](CCCNC(=N)N)NC(=O)[C@@H](Cc2ccccc2)NC(=O)[C@H](Cc2c[nH]cn2)NC1=O [technetium-99m labelled] | B16/F10 | cellular uptake | concentration not given, 2 h, 25 °C, with: unlabelled NDP-MSH 6.07 nmol |  | blocked uptake | ~75% |
| COc1cc(CNC(=O)C[C@H](C)CCC=C(C)C)ccc1O | K562 leukaemia cells | SRB | 10 µM, 48 h |  | growth percent | 89.4% |
| CCCCCCCCCCCCCC[C@@H](O)[C@@H](O)[C@H](CO[C@H]1O[C@H](CO)[C@H](O)[C@H](O)[C@H]1O)NC(=O)CCCCCCCCc1ccccc1 | human Vα24+ NKT cells |  | concentration not given, HeLa-CD1d co-culture | baseline: α-GalCer | IFN-γ/IL-4 ratio | 2.17 ± 0.24 |
| O=C(CSc1nc2ccccc2s1)Nc1nonc1[N+](=O)[O-] | HEK293T transfected with f-Nluc | NanoLuc reporter, NanoGlo counter-screen | concentration not given |  | luciferase signal | no inhibition |
| CC(C)=CCc1cc(-c2coc3cc(O)c(CC=C(C)C)c(O)c3c2=O)ccc1O | 3T3-L1 adipocytes | activator | up to 100 µM |  | glucose consumption | inactive |
| O=C(/C=C/c1ccc(O)cc1)OC(CO)C(=O)O (stereo not drawn) | SW480 | β-catenin-dependent transcription, TOPFLASH luciferase reporter | concentration not given |  | reporter activity | no effect |
| COc1cc(CNC(=O)C[C@H](C)CCC=C(C)C)ccc1OCc1cn(-c2ccc(Cl)cc2Cl)nn1 | NCI-H460 | SRB | 10 µM, 48 h |  | growth percent | 75.1% |
| COc1ccc(NC(=O)COc2ccc(/C=C/C(C)=N/O)cc2OC)cc1 | SH-SY5Y | flow cytometry | 10 µM, with: amyloid-β 10 µM |  | cells expressing IL-1β | 26% |
| Cn1cncn1.[Ru+2].c1cc(-c2ccc3ccccc3n2)nc(-c2ccc3ccccc3n2)c1.c1ccc2cc3nc4c5cccnc5c5ncccc5c4nc3cc2c1 | L929 | MTT |  | baseline: dark EC50 over light EC50 | phototherapeutic index | 14 |
| COc1ccc(C2=Nn3c(NN=C4C(=O)N(C)c5ccc(Br)cc54)nnc3SC2)cc1 | SNB-75 | cell growth or viability, SRB | 10 µM |  | inhibition | 17% |
| CC(=C(c1ccc(O)cc1)c1ccc(Cl)cc1)c1ccc(Cl)cc1 | SNB-75 | cell growth or viability, SRB |  |  | GI50 | 0.78 µM |

| SMILES | cell line | assay | setting | scale | measurement | result |
| --- | --- | --- | --- | --- | --- | --- |
| Cc1cccc(O[C@H]2CCC[C@@H](C(C)CNCc3ccncc3)C2)c1 (relative stereo) | primary mouse cortical neurons |  | concentration not given |  | decrease in ATP level | ~20% |
| COc1ccc([C@@H]2CC(=O)c3c(O)cc(O[C@@H]4O[C@H](CO[C@@H]5O[C@@H](C)[C@H](O)[C@@H](O)[C@H]5O)[C@@H](O[C@H]5O[C@H](CO)[C@@H](O)[C@H](O)[C@H]5O)[C@H](O)[C@H]4O)cc3O2)cc1O | A549 | cell growth or viability, MTS | 150 µg/mL, 72 h |  | viability | 32.6% |
| CCN(CC)C1CCN(Cc2cc(C#CCNC(=O)OC(C)(C)C)cc(I)c2O)CC1 | NUGC-4 p53 wild type |  | 6.25 to 100 µM, 6 h |  | caspase 3/7 activity | no effect |
| COc1cc(CNC(=O)C[C@H](C)CCC=C(C)C)ccc1OCc1cn(-c2ccccc2F)nn1 | UACC-62 melanoma cells | SRB | 10 µM, 48 h |  | growth percent | 69.5% |
| COc1cc2c(OC3OCC(OC)C(OC)C3OC(=O)c3ccc(Br)cc3)c3c(c(-c4ccc5c(c4)OCO5)c2cc1OC)C(=O)OC3 (stereo not drawn) | FaDu | RT-qPCR, item: fibronectin | concentration not given, 36 h |  | mRNA level | no effect |
| C[C@H](CC(=O)C[C@@H](C)[C@H]1C[C@H](O)[C@@]2(C)C3=C(C(=O)C[C@]12C)[C@@]1(C)CCC(=O)C(C)(C)[C@@H]1C[C@@H]3O)C(=O)O | 3T3-L1 adipocytes |  | concentration not given |  | glucose consumption | increased |
| CC(=O)OC[C@H]1O[C@@H](Sc2sc(C(=O)c3ccc(Br)cc3)c(N)c2-c2nc3ccccc3s2)[C@H](OC(C)=O)[C@@H](OC(C)=O)[C@H]1OC(C)=O | SF-295 | SRB | 10 µM, 48 h | baseline: untreated | growth | 97.1% |
| Cc1cc(C)nc(NC(=S)N2CCN(Cc3ccc(C(F)(F)F)cc3)CC2)c1 | ZR-75-1 and SK-MEL-2 |  | concentration not given, PHGDH-independent lines |  | cytotoxicity | not toxic |
| O=C1C(=NN=c2[nH]ccs2)c2cc(Cl)ccc2N1CCn1ncc2c(=O)[nH]cnc21 | BALB/3T3 and A498 | cell growth |  | baseline: IC50 BALB/3T3 over A498 | selectivity ratio | 0.79 |
| COc1cc(CNC(=O)C[C@H](C)CCC=C(C)C)ccc1OCc1cn(-c2ccc(F)cc2)nn1 | NCI-H460 | SRB | 10 µM, 48 h |  | growth percent | 79.5% |
| CCCc1nc2cc(C(=O)N3CCC4(CC3)CC(=O)c3cc5c(cc3O4)OC(C)(C)CC5)cc(C)c2[nH]1 | AML12, mouse primary hepatocytes | item: Pnpla3, lipolysis genes | 1 µM, 24 h |  | mRNA level | increased |
| CC(=O)OC[C@H]1O[C@@H](Sc2sc(C(=O)c3ccc(C)cc3)c(N)c2-c2nc3ccccc3s2)[C@H](OC(C)=O)[C@@H](OC(C)=O)[C@@H]1OC(C)=O | MDA-MB-435 | SRB | 10 µM, 48 h | baseline: untreated | growth | 77.4% |
| O=S(=O)(CCC(F)(F)F)Nc1ccc(Oc2ncccc2-c2ccnc(N[C@H]3CCCNC3)n2)c2ccccc12 | INS1 with Dox-inducible IRE1α | inhibitor, RNA-Seq | 20 µM, 4 h, with: doxycycline 5 ng/mL |  | XBP1 mRNA splicing | inhibited |
| CC(Cc1ccc(Cl)cc1)=C(c1ccc(Cl)cc1)c1ccc(OCCN(C)C)cc1 | SF-295 | cell growth or viability, SRB |  |  | GI50 | 5.5 µM |
| C=C1C(=O)OC2C=C(C)CCC=C(C(=O)OC(C)C(C)(O)C(=O)OC3C(OC(C)=O)C(C(=O)OC)=CCCC(C)=CC4OC(=O)C(=C)C43)CC(OC(=O)C(C)=CC)C12 (stereo not drawn) | HeLa |  | 3 µM, 24 h | baseline: untreated | caspase-9 activity | 4.86 fold |
| Cc1ccc(C2=Nn3c(N/N=C4/C(=O)Nc5ccc(Br)cc54)nnc3SC2)cc1 | NCI-60 cell line panel |  | 10 µM, growth inhibition above 10% |  | number of sensitive cell lines | 12 |
| COc1cc(CNC(=O)C[C@H](C)CCC=C(C)C)ccc1OCc1cn(-c2ccccc2)nn1 | NCI-H226 | SRB | 10 µM, 48 h |  | growth percent | 79.5% |
| Cc1nc(C)c(C=[N+]([O-])C(C)(C)C)nc1C | primary rat midbrain neurons | Western blot, item: MEF2D | 100 µM, with: 20 µM MPP+ |  | increase in protein level | 48.7% |
| COc1cc(CNC(=O)C[C@H](C)CCC=C(C)C)ccc1OCc1cn(-c2ccc(Br)cc2)nn1 | K562 leukaemia cells | SRB | 10 µM, 48 h |  | growth percent | 66.3% |
| Cc1ccc(C(C)C)cc1.Oc1ccccc1C=NNC1=Nc2ccccc2-c2[nH]c3ccc(Br)cc3c2C1.[Cl-].[Cl][Ru+] | SW480 | annexin V/PI flow cytometry | 5 µM, 48 h |  | necrotic cells | 14% |
| O=[N+]([O-])/C=C/c1ccc(Br)o1 | KB |  | mean of three Leishmania species | baseline: KB CC50 over Leishmania IC50 | selectivity index | 4.5 |
| COc1ccc([C@@H]2CC(=O)c3c(O)cc(O[C@@H]4O[C@H](CO[C@@H]5O[C@@H](C)[C@H](O)[C@@H](O)[C@H]5O)[C@@H](O)[C@H](O)[C@H]4O)cc3O2)cc1O | A549 | trypan blue exclusion | 150 µg/mL, 48 h |  | cell count | 9170 ± 414 |
| O=C(O)c1ccc(/C=C2\SC(=S)N(Cc3cccc(C(F)(F)F)c3)C2=O)cc1 | LPS-primed Nlrp3-/- mouse BMDM |  | concentration not given, with: nigericin |  | chloride efflux | no effect |
| O=C(N1CCCC1)n1cc(-c2ccc(-c3ccccc3)cc2)nn1 | mouse T-cells | N-terminal labeled proteins, N-terminal enrichment proteomics, item: TMSB4X | 1 nM, 6 h | baseline: DMSO | SILAC ratio | 0.89 ± 0.17 |

Some of these lines once more:
| SMILES | cell line | assay | setting | scale | measurement | result |
| --- | --- | --- | --- | --- | --- | --- |
| Cc1cc(C)nc(NC(=S)N2CCN(Cc3ccc(C(F)(F)F)cc3)CC2)c1 | ZR-75-1 and SK-MEL-2 |  | concentration not given, PHGDH-independent lines |  | cytotoxicity | not toxic |
| O=C1C(=NN=c2[nH]ccs2)c2cc(Cl)ccc2N1CCn1ncc2c(=O)[nH]cnc21 | BALB/3T3 and A498 | cell growth |  | baseline: IC50 BALB/3T3 over A498 | selectivity ratio | 0.79 |
| COc1cc(CNC(=O)C[C@H](C)CCC=C(C)C)ccc1OCc1cn(-c2ccc(F)cc2)nn1 | NCI-H460 | SRB | 10 µM, 48 h |  | growth percent | 79.5% |
| CCCc1nc2cc(C(=O)N3CCC4(CC3)CC(=O)c3cc5c(cc3O4)OC(C)(C)CC5)cc(C)c2[nH]1 | AML12, mouse primary hepatocytes | item: Pnpla3, lipolysis genes | 1 µM, 24 h |  | mRNA level | increased |
| CC(=O)OC[C@H]1O[C@@H](Sc2sc(C(=O)c3ccc(C)cc3)c(N)c2-c2nc3ccccc3s2)[C@H](OC(C)=O)[C@@H](OC(C)=O)[C@@H]1OC(C)=O | MDA-MB-435 | SRB | 10 µM, 48 h | baseline: untreated | growth | 77.4% |
| O=S(=O)(CCC(F)(F)F)Nc1ccc(Oc2ncccc2-c2ccnc(N[C@H]3CCCNC3)n2)c2ccccc12 | INS1 with Dox-inducible IRE1α | inhibitor, RNA-Seq | 20 µM, 4 h, with: doxycycline 5 ng/mL |  | XBP1 mRNA splicing | inhibited |
